{"data": "Published values pooled from the literature", "note": "A part holds a random share of what one study measured. Substitutions count along the parent as printed."}
{"data": "Sample 1", "target": "CCNE2, cyclin fold, Cln2 fusion (human)", "technique": "yeast growth competition, sequencing", "medium": "yeast", "setting": "weak parent motif", "baseline": "not given", "reading": "higher = stronger binding", "parent": "ORC1 docking peptide (human); PRARKRLELGNLG"}
{"Change": "PRARKRLILGNLG [E8I]", "normalised enrichment score": 0.823}
{"Change": "PRARKRLELINLG [G10I]", "normalised enrichment score": 0.53}
{"Change": "PRARKRMELGNLG [L7M]", "normalised enrichment score": 0.255}
{"Change": "PRARKRSELGNLG [L7S]", "normalised enrichment score": 1.32}
{"data": "Sample 2", "target": "Interferon regulatory factor 7, full length, phosphomimetic (IRF7, Homo sapiens, UniProt Q92985, residues 1-503, S471D/S472D/S475D/S476D/S477D/S483D/S484D/S487D)", "technique": "protein-binding microarray", "molecule type": "double-stranded DNA, one strand shown", "medium": "in vitro", "concentration": "2200 nM top", "setting": "60-bp whole probe", "together with": "salmon DNA 0.4 mg/ml", "baseline": "random background probes", "reading": "higher = stronger binding", "constant ends, left off below": "GCCTAGCAC … GTCTTGATTCGCTTGACGCTGCTG", "Target sequence (chain)": "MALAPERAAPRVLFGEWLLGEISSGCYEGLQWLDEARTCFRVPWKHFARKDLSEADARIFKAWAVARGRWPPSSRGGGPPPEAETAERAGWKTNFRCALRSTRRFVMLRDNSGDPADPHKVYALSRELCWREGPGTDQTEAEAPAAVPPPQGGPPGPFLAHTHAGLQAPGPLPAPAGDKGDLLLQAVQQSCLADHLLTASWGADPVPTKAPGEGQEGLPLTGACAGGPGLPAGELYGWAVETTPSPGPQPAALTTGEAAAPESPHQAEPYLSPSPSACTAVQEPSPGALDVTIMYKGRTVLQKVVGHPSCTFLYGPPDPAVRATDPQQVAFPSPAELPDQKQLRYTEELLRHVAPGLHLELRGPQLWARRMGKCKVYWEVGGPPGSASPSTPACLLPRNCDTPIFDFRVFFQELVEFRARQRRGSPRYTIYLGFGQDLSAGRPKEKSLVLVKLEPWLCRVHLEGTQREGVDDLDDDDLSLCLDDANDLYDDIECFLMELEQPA"}
{"Strand": "GACAGTTTCGACACTGGGGACGTGCTA", "fitted relative affinity": "3.96 z-score"}
{"Strand": "TCACCTTTTTTGTTGTTACTGTGCTAG", "fitted relative affinity": "2.24 z-score"}
{"Strand": "AACGATATCAGTCTCGAGACGTGCTAG", "fitted relative affinity": "0.241 z-score"}
{"Strand": "TCACATTTTTTTTGCAAACTGTGCTAG", "fitted relative affinity": "1.33 z-score"}
{"Strand": "GTGTATATGGACGTCTGAAGGTGCTAG", "fitted relative affinity": "0.485 z-score"}
{"Strand": "GACGGTATGCTTTTCCTGACGTGCTAG", "fitted relative affinity": "0.735 z-score"}
{"data": "Sample 3", "target": "ABI1, truncated, D143A, DHFR fusion (Arabidopsis thaliana)", "technique": "DHFR PCA, deep sequencing", "medium": "yeast", "setting": "methotrexate growth selection, single substitutions", "together with": "(+)-ABA 2500 µM", "baseline": "wild-type fitted maximum", "reading": "higher = stronger binding", "parent": "PYL1, truncated, DHFR fusion (Arabidopsis thaliana); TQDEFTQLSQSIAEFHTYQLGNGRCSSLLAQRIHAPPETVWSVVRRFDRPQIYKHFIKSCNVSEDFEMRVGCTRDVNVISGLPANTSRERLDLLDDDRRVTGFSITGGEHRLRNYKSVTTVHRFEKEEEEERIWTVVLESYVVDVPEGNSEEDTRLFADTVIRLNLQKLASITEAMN"}
{"Change": "E125P", "relative binding score [%]": 101}
{"Change": "Q31N", "relative binding score [%]": 86.3}
{"Change": "K58H", "relative binding score [%]": 90.8}
{"data": "Further values, each from its own experiment"}
{"Substance": "PhoQ, residues 284 288 289 292 302 303 TNSAEL", "target": "PhoP, residues 12 14 15 18 19 VQGLL (Escherichia coli, UniProt P23836)", "assay": "Sort-seq, item: YFP reporter", "system": "E. coli", "setting": "PhoQ-PhoP variant library, together with: 10 µM Mg2+", "how to read": "baseline: high Mg2+ state, higher = stronger signaling", "quantity": "fold induction", "result": 3.09}
